Results pooled from the literature.
Each numbered part is a random draw from the data of one study; scales do not carry over between parts.

Block 1 — method: protein-binding microarray; molecule type: double-stranded DNA, one strand shown; sample: in vitro; tested at: 250 nM; setting: 60-bp whole probe; added: salmon DNA 0.4 mg/ml; reference: random background probes; reading: higher = stronger binding; measurement: log fluorescence; shared flanks, not repeated: GCCTAGCAC … GTCTTGATTCGCTTGACGCTGCTG
Target: Interferon regulatory factor 5, full length, phosphomimetic (IRF5, Homo sapiens, UniProt Q13568-2, residues 1-514, K96S/S451D/S453D/S456D/S462D)
TGATTTTGGTCTTTCTGTTTGTGCTAG: 3.88 z-score
TTAGGTATCCTACTTCTTTAGTGCTAG: 0.215 z-score
TTAGCTTTCGGTATCGGTTAGTGCTAG: 11.7 z-score
GACGGTATCGGTATCGTGACGTGCTAG: 5.53 z-score
GACGGTCTCCTGATCCTGACGTGCTAG: -0.667 z-score
GACGAACTGGGGTATCGAGAAGTGCTA: 0.293 z-score
TCAGGTTTCGGTATCGGTTAGTGCTAG: 11 z-score
AAGTGTGCCCATCTCTGCTCGTGCTAG: -0.359 z-score
GACGGTTTCCTTCACCTGACGTGCTAG: 0.819 z-score
TCACTCTGCTCTTTTCAAACTGTGCTA: 0.754 z-score
TTAGATTTCAGTAACGATTAGTGCTAG: 1.75 z-score
TTAGATTTCAGCCTGGATTAGTGCTAG: 0.724 z-score

Block 2 — method: protein-binding microarray; molecule type: double-stranded DNA, one strand shown; sample: in vitro; tested at: not given; reading: higher = stronger binding; measurement: E-score
Target: Protein max, full length (MAX, Homo sapiens, UniProt P61244-2, residues 1-151)
Setting: k-mer, scored over probes, only values ≥0.25
CAGGTGCA: 0.319
GAGCACGA: 0.321
AACATGCC: 0.34
GACCACAC: 0.284
CACCTGGA: 0.297
CACGCTCC: 0.372
GCACACCA: 0.252
ACGCACGC: 0.421
ATGCGGGC: 0.277
AACGTGGC: 0.432
TGCATGCA: 0.338
ACGTTAGG: 0.291
CGTGTACA: 0.323
ACGTGCCG: 0.437
ACGCGCGT: 0.369
ACGCGCGG: 0.342
AAACACGA: 0.309
AAGCATGT: 0.427
ACGTTCTA: 0.25

Block 3 — method: RNA Bind-n-Seq; molecule type: RNA; sample: in vitro; tested at: 1 µM; setting: whole 134-nt RNA, ends assumed; added: 150 mM KCl; reference: input library; reading: higher = stronger binding; measurement: log2 enrichment
Target: Ras GTPase-activating protein-binding protein 1, C-terminal RGG region (G3BP1, Homo sapiens, UniProt Q13283)
Chain of UniProt Q13283 (whole entry, looked up): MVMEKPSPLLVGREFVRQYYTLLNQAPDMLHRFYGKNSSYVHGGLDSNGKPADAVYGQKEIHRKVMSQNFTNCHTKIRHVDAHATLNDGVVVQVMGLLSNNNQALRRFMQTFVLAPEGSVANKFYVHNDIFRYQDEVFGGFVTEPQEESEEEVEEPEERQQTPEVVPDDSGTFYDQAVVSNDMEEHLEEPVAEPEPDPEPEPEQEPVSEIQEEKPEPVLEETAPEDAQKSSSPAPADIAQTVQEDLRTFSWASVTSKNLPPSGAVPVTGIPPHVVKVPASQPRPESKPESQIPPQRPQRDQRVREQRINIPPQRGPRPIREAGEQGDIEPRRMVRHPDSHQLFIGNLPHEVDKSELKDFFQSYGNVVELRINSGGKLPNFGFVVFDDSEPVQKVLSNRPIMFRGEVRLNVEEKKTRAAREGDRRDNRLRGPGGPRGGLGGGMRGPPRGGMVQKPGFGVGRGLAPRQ
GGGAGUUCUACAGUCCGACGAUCUCUCUCUCUUUCCCUCUAGGGUCACAUCUCCCAGGAAGAUCUCACUUCCCCACAGAAGCUCUUGGCCUGGCCUCCUGCAGUGCCACGCUCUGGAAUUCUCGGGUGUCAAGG: 0.708
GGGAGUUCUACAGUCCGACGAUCUUGUGAGAGCCACAGGAAAAGCAAGAAGGAGAAGAAGAAAAAGAAAAAGAGGAAACACAAGAAAGAGAAGAAGAAGAAAGACAAAGAGCAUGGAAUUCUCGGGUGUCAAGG: -0.735
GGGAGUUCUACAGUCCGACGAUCUCAGGAAGUAAAAACAAAUGGAAAUGCUUCGGAUAGUGGCAGGGGUGGGGGUUGCUAAGGAAAGGGUGGGAUGGGAGUGGGUAAAGAGUUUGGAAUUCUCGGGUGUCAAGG: 1.85
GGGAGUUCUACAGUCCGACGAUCUCAAGUCCUGUGCUACACAUCGUAUGUACCGAAUCGGGUUGGGUUGGGGUUGGGGAAAGUAUUAUGUUACGCCGUUCGGAUCUGCACUUCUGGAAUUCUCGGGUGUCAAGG: 2.99
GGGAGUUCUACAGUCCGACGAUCUCCUGUGCUACACAUCGUAUGUACCGAAUCAAAUUUUUUUAAAUUUUUAAACCCCCAAAAAAGUAUUAUGUUACGCCGUUCGGAUCUGCAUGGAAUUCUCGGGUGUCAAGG: -0.531
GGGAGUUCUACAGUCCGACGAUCAGUCCUGUGCUACACAUCGUAUGUACCGAAUCGGGUUUUUGGUUUUUGGGUUUUUGGGAAAGUAUUAUGUUACGCCGUUCGGAUCUGCACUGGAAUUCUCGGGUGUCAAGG: -1.43
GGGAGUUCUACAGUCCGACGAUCUCCUGUGCUACACAUCGUAUGUACCGAAUCGGGUUUUUGGGUUUUUGGGGUUUUUGGGGAAAGUAUUAUGUUACGCCGUUCGGAUCUGCAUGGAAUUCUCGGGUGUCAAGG: 0.294
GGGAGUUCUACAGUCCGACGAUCGUCCUGUGCUACACAUCGUAUGUACCGAAUCGGGUUUUUGGGUUUUUGGGGUUUUUGGGAAAGUAUUAUGUUACGCCGUUCGGAUCUGCAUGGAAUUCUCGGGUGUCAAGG: -0.038
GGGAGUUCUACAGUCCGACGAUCCAAGUCCUGUGCUACACAUCGUAUGUACCGAAUCGGGGCCCGGGCCCGGCCCGGGAAAGUAUUAUGUUACGCCGUUCGGAUCUGCACUUCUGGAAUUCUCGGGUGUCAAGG: -1.88

Block 4 — method: competition protein-binding microarray; molecule type: double-stranded DNA, one strand shown; sample: in vitro; tested at: 2 µM; added: Cbf1 competitor, 0.05 µM; reading: higher = stronger binding; measurement: fluorescence intensity
Target: Phosphate system positive regulatory protein PHO4, full length, GST-tagged (PHO4, Saccharomyces cerevisiae, UniProt P07270, residues 1-312)
Setting: whole 60-bp probe, lowest competitor level
Construct (chain): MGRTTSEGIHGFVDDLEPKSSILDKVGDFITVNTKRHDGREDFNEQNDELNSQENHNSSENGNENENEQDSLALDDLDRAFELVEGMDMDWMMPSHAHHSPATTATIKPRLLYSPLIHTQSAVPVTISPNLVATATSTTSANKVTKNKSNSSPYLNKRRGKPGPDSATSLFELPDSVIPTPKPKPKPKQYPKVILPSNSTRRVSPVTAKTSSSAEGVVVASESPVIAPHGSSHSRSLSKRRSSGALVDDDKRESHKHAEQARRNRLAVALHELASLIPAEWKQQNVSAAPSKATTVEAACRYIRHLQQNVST
TTATGACTGCGAATGTCCGTGCAATGCGGCCCAATTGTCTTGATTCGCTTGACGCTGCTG: 5050 a.u.
ACCAAAAGACCAGAGCTCGTGATGGTCGGCTGCACCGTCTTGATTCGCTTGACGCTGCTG: 7340 a.u.
CTTCTGTAAATTTGGATCGTGGGTGGACGCGCCCCGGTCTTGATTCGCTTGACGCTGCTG: 8180 a.u.
GTATGCACCATCTTTCATGTGGGAAATAAGCTTTTTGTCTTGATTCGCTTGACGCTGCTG: 5390 a.u.
GCGCGACTTGCAAGAAAAGGCATAATTGTGGCGAGGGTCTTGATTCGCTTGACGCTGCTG: 4020 a.u.
GGCGTTTCTGATCTTCATGTGGTCGGAGTGGAATTCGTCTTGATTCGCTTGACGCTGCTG: 5410 a.u.
CGGGGTTAAGTTTCACACGTGTTTTGCTTGCAGCAGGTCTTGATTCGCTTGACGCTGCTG: 15200 a.u.
CTTTCCCGATCTTGTACCGTGGGTGTAGCACATTTGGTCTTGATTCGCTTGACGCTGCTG: 5670 a.u.
CTGCATGGTACTGCTCATATGACAACTCCCACCCAGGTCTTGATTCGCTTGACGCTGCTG: 6460 a.u.
ATCCCTGTCGTTACGGTCGTGCCAGTTACACTGGGAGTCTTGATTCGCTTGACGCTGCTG: 8020 a.u.
CATACCCAACCTTGATTCGTGGGTGAAGATATTTGTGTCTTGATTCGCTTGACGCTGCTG: 6400 a.u.
TGCGCAACAACTTGCAGAGTGGGTGTATGTCTAGAAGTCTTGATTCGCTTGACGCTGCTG: 5410 a.u.
TGCGCAACAACTTGAGACGTGGGTGTATGTCTAGAAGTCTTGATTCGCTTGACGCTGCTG: 6750 a.u.
TTTCAAAAAAGGAACTTATCTCTGACAATTTTCGACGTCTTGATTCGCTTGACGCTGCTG: 2790 a.u.
CGGGCGTATTGAGCCCTCGTGCTGTCTGGATGCACCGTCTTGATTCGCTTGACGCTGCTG: 13000 a.u.
AAAGCGGTAATTTGGCGTGTGGGTGCAGATATCTATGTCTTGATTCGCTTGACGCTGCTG: 6540 a.u.
CCTCAGGAGCGCCGCCATGTGGGATGGAATAGCACAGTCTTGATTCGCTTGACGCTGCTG: 10300 a.u.
AGGCGAATTCTTGTCATCGTGCCGACAGCAAGCCATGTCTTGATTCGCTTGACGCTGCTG: 8660 a.u.
CTTTCCCGATCTTGTCACCCGACTTTAGCACATTTGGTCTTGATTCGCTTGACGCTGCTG: 3910 a.u.

Other studies, line by line
PhoQ, residues 284 288 289 292 302 303 SNGLAW — fold induction (PhoP, residues 12 14 15 18 19 TQAIL (Escherichia coli, UniProt P23836); Sort-seq, measured: YFP reporter; E. coli; PhoQ-PhoP variant library, added: 10 µM Mg2+; reference: high Mg2+ state, higher = stronger signaling): 12.5

Some of these lines once more (block 2):
TGCATGCA: 0.338
AACGTGGC: 0.432
CACGCTCC: 0.372
